# Results collected from several papers.
# Compare with care: the assays were run in different laboratories. Numbers after ± are the reported error.
# GLP1R: Glucagon-like peptide 1 receptor (GLP1R, Homo sapiens, UniProt P43220)
Structure (SMILES),target,assay,test system,conditions,how to read,measurement,result
O=C1Nc2c(ccc(Cl)c2Cl)/C1=N/O,"Calm1/Kcnn2, SK2-a isoform (Rattus norvegicus, UniProt P0DP29+P70604, A477V/L480M)","channel current, potentiator, inside-out patch clamp",,with: 200 nM Ca2+,reference: wild type over mutant,EC50 shift,3.4 fold
NCCCNCCCCNCCCNCc1ccccc1,"Smox (Mus musculus, UniProt Q99K82)",substrate,,,reference: spermine,relative Vmax,0.32
Cc1ccnc(-c2cc(C(=O)NCCCCn3cc(CN(CC(N)=O)C(=O)CN(CCCCN)C(=O)CN(CCCCN)C(=O)CN(C(=O)CN(CC(C)C)C(=O)CN(CC(C)C)C(=O)CN(CCc4c[nH]c5ccccc45)C(=O)CN(CCCCN)C(=O)C(N)CCCCNC(=O)CCCCCNc4ncnc5[nH]cnc45)C(C)c4ccccc4)nn3)ccn2)c1 (stereo not drawn),"PSMC6 (Homo sapiens, UniProt P62333)",,HeLa,"concentration not given, in the dark",,proteasome peptidase activity,no effect
C[C@H](NC(=O)[C@@H]1CCCN1C(=O)[C@@H](NC(=O)[C@H](CCCCN)NC(=O)[C@H](CO)NC(=O)CNC(=O)[C@H](CO)NC(=O)[C@H](CC(N)=O)NC(=O)[C@H](Cc1c[nH]c2ccccc12)NC(=O)[C@H](C)NC(=O)[C@@H]1CCCN1C(=O)[C@@H](NC(=O)[C@H](CCCCN)NC(=O)[C@H](CO)NC(=O)CNC(=O)[C@@H](N)CO)[C@@H](C)OP(=O)(O)O)[C@@H](C)OP(=O)(O)O)C(=O)N[C@@H](Cc1c[nH]c2ccccc12)C(=O)N[C@@H](CC(N)=O)C(=O)N[C@@H](CO)C(=O)NCC(=O)N[C@@H](CO)C(=O)N[C@@H](CCCCN)C(=O)O,"mRNA-capping enzyme subunit beta (pct1, Schizosaccharomyces pombe, UniProt Q9P6Q6)",fluorescence polarization,,,reference: unphosphorylated over Thr1-phosphorylated,affinity fold loss,33 fold
CC(C)(Cn1cc(-c2cnc3cccnn23)nn1)c1c[nH]c2ccccc12,GLP1R,"positive allosteric modulator, measured: cAMP",,with: GLP-1(9-36) L20A,reference: wild-type GLP-1(9-36),potentiation,decreased
CC(C)(C)CCN1C[C@@H]2[C@@H](CNC(=O)c3cc(Cl)cc(Cl)c3)[C@@H]2C1.Cl,"Voltage-dependent L-type calcium channel subunit alpha-1F (Homo sapiens, UniProt O60840, M1004A)","calcium current, whole-cell patch clamp",HEK-293T cells,100 µM,,half-activation voltage,-1.58 ± 9.29 mV
COc1c(F)c(F)c(C(=O)N[C@H]2[C@@H](O)[C@@H](CO)O[C@@H](S[C@@H]3O[C@H](CO)[C@H](O)[C@H](NC(=O)c4c(F)c(F)c(OC)c(F)c4F)[C@H]3OS(=O)(=O)O)[C@@H]2O)c(F)c1F,"Galectin-3 (LGALS3, Homo sapiens, UniProt P17931)",ITC,,,,–TΔS,2.1 ± 0.143 kcal/mol
COc1ccc(-c2cc(C(F)(F)F)nc(S(=O)(=O)CCCC(=O)Nc3c(F)cc(F)cc3Br)n2)cc1OC,GLP1R,"cAMP, agonist",,,,Emax,56%
O=C(c1cc2c(s1)CCCCC2)N1CCC(n2c(=O)[nH]c3ccccc32)CC1,"Trpc6 (Mus musculus, UniProt Q61143)","channel activation, agonist, whole-cell patch clamp",,wild type,,saturating concentration,~3 µM
Nc1ncnc2c1ncn2[C@@H]1O[C@H](COP(=O)(O)OP(=O)(O)OP(=O)(O)O)[C@@H](O)[C@H]1O,"MAT2A (Homo sapiens, UniProt P31153)",substrate,,"200 µM, 25 °C, enzyme 5 µM, no methionine",,ATPase rate,0.0018 ± 9e-05 s⁻¹
Cn1c(=O)c2[nH]c(CCc3ccccc3)nc2n(C)c1=O,"Androgen receptor (AR, Homo sapiens, UniProt P10275)","reporter gene, antagonist, PSA-luciferase",HeLa-A6,"10 µM, 24 h, with: 5 nM dihydrotestosterone",reference: maximal activity,remaining activity,101%
COC(=O)C1=Cc2ccccc2S1(=O)=O,"E3 ubiquitin-protein ligase synoviolin, residues 235-617 (SYVN1, Homo sapiens, UniProt Q86TM6)",in vitro ubiquitination,,"0, 5, 10 µM, Hrd1 C-terminal domain",,E3 ligase activity,no effect

# Excerpt of the above:
Structure (SMILES),target,assay,test system,conditions,how to read,measurement,result
COc1ccc(-c2cc(C(F)(F)F)nc(S(=O)(=O)CCCC(=O)Nc3c(F)cc(F)cc3Br)n2)cc1OC,GLP1R,"cAMP, agonist",,,,Emax,56%
NCCCNCCCCNCCCNCc1ccccc1,"Smox (Mus musculus, UniProt Q99K82)",substrate,,,reference: spermine,relative Vmax,0.32
